Results collected from several papers.
Lines come from different studies, so protocols differ. ± gives the spread as reported.
CTSL: Procathepsin L (CTSL, Homo sapiens, UniProt P07711)
Sequence of UniProt P07711 (whole entry, looked up): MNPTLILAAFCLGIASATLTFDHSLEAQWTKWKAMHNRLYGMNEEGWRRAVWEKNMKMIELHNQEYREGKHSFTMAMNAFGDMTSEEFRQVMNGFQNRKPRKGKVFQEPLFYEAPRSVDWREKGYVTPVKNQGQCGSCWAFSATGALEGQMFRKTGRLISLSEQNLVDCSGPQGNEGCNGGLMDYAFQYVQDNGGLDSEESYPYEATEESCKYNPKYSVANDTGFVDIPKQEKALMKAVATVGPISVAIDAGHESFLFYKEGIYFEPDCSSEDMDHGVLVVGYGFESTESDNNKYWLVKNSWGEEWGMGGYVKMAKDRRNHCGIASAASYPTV
BCHE: Cholinesterase (BCHE, Equus caballus, UniProt P81908)
Sequence of UniProt P81908 (whole entry, looked up): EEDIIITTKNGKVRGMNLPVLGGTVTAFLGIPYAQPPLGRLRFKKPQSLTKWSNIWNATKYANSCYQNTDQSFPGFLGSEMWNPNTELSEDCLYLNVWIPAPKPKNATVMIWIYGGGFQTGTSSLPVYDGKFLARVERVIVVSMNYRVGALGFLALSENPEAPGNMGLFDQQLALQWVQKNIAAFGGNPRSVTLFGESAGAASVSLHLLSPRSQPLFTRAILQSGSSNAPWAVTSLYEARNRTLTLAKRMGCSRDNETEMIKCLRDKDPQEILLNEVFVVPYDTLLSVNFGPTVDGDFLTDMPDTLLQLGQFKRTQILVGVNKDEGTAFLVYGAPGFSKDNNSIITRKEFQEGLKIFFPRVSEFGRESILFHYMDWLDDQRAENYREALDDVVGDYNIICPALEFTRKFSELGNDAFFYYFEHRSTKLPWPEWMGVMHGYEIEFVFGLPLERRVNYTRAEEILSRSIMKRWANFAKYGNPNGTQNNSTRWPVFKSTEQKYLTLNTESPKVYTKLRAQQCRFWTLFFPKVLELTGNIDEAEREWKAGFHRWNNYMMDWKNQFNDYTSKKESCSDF
CDK2: Cyclin-dependent kinase 2 (CDK2, Homo sapiens, UniProt P24941)
AKR1C3: Aldo-keto reductase family 1 member C3 (AKR1C3, Homo sapiens, UniProt P42330)
Sequence of UniProt P42330 (whole entry, looked up): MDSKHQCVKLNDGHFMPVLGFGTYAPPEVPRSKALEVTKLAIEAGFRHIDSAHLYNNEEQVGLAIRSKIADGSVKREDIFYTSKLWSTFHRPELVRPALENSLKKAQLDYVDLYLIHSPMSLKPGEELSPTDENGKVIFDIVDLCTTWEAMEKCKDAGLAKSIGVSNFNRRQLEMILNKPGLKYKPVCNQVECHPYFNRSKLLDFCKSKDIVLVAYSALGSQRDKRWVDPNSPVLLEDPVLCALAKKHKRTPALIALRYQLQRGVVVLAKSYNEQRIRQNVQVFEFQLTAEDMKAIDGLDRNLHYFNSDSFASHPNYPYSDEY
Sequence of UniProt O66465 (whole entry, unmodified, looked up): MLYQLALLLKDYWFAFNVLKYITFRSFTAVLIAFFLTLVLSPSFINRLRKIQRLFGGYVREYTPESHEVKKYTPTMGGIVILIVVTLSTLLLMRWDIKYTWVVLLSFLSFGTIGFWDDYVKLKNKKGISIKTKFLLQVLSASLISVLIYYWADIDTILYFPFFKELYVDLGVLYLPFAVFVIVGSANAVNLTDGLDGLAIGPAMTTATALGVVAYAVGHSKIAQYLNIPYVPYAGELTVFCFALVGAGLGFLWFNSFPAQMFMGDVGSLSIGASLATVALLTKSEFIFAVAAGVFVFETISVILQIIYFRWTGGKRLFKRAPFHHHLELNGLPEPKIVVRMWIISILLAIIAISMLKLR
Sequence of UniProt P12821 (whole entry, looked up): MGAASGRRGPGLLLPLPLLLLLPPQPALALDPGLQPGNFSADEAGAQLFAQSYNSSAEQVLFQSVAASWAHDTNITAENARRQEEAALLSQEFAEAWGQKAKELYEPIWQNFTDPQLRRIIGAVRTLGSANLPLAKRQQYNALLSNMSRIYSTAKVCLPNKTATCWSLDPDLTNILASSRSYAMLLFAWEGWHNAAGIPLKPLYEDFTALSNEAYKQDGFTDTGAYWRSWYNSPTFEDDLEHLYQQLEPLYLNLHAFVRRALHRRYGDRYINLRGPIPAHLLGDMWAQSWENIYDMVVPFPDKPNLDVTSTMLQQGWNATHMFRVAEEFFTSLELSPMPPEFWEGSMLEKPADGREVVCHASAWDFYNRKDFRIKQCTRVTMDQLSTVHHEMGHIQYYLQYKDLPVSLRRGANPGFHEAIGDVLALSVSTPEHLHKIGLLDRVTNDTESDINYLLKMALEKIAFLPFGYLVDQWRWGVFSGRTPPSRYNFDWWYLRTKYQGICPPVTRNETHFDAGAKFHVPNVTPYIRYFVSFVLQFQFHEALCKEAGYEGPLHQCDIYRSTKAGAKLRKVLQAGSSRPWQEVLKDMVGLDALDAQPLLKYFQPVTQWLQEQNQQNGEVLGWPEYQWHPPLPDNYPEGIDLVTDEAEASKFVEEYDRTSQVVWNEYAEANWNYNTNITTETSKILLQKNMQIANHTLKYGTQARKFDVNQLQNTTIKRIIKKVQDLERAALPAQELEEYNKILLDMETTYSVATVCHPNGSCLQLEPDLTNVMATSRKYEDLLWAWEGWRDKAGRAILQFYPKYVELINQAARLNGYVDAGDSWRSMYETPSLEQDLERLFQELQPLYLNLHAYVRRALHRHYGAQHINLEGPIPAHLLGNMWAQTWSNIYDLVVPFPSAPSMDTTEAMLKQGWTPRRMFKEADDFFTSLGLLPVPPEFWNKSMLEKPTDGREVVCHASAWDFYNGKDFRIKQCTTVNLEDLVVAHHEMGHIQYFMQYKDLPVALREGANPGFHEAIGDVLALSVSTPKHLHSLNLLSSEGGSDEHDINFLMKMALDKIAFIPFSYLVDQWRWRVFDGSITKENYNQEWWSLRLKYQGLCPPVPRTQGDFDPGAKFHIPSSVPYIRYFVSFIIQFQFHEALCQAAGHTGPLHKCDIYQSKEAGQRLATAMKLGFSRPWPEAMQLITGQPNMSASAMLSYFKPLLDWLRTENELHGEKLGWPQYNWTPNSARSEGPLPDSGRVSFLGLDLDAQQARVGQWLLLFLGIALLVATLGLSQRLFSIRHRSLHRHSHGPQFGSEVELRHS
Sequence of UniProt P18089 (whole entry, looked up): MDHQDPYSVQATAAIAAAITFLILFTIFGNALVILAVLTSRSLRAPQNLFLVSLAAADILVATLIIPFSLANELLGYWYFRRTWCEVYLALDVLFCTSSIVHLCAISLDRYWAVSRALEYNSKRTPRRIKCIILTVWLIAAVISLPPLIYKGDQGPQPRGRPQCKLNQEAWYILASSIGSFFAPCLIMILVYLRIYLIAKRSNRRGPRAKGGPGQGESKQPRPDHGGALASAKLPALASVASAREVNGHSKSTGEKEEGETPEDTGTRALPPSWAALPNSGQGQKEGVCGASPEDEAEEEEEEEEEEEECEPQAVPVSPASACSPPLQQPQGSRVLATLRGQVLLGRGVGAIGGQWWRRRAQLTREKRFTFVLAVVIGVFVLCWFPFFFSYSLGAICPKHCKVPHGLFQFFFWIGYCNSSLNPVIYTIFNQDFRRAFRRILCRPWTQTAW
Sequence of UniProt P26358 (whole entry, looked up): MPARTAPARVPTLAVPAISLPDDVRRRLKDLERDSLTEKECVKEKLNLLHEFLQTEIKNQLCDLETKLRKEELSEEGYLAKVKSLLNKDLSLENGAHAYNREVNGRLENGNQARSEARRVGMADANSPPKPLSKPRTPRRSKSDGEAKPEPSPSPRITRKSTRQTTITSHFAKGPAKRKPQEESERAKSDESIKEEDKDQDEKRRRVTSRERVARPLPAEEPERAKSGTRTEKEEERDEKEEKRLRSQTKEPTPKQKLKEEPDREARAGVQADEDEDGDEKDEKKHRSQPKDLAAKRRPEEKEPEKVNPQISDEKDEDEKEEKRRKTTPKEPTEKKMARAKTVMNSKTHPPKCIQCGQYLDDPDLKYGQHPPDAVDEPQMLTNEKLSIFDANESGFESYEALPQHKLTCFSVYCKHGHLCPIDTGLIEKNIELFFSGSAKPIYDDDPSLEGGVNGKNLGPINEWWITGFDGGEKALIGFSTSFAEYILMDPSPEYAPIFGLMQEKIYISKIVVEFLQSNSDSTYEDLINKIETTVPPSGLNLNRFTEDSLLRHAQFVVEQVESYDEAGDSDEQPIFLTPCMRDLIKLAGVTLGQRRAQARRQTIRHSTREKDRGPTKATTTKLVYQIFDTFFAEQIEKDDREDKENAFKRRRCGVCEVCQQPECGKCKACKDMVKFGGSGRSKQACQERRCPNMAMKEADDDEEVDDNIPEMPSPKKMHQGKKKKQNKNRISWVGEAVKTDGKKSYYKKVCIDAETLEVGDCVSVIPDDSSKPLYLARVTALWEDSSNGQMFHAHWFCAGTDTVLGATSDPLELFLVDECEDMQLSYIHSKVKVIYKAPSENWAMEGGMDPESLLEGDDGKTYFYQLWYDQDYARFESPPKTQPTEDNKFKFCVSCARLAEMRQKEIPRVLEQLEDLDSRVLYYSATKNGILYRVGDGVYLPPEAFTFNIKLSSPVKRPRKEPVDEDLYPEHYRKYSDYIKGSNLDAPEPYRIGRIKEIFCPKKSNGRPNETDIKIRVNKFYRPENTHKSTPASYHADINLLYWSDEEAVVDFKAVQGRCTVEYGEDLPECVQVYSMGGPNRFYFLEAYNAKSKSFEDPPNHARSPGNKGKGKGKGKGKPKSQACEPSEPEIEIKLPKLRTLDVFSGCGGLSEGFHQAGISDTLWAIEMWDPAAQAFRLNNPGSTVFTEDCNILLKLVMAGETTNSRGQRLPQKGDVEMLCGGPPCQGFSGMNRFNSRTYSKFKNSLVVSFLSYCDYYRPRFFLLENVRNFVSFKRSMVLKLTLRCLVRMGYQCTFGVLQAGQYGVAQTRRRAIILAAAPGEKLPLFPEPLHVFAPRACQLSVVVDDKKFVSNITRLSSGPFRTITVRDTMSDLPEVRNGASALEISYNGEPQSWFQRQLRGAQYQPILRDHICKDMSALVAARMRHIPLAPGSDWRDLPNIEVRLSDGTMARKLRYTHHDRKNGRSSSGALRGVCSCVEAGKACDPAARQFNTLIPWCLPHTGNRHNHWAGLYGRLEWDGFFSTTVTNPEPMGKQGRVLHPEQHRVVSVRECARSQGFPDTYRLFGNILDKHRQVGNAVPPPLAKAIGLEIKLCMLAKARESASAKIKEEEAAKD

Under inhibition, `O=C(Oc1cncc(Cl)c1)c1cccc2[nH]ccc12` is recorded as “no inhibition” (CTSL; enzyme activity, inhibitor; concentration not given, with: Z-Phe-Arg-pNA).
With `COC(=O)C1=CO[C@@H](OC(C)=O)[C@@H]2C(Cn3cc(CCCO[Si](C(C)C)(C(C)C)C(C)C)nn3)=CC[C@H]12` the inhibition was 10.7 ± 0.15% (BCHE; inhibitor; horse serum BuChE; 10000 µM).
`Cc1ccc2c(Nc3ccc4ccccc4n3)c3c(nc2c1)CCCC3` has an inhibition of -49.2% (BCHE; enzyme activity, inhibitor; 100 µM).
With `C=CCn1cnc2c(NCc3ccc(C)s3)nc(N[C@H](CC)CO)nc21` the inhibition was 0 to 15% (CDK2; enzyme activity; 2 µM).
With `NCC(CCC(N)C(=O)O)CC1OC(n2cnc3c(N)ncnc32)C(O)C1O` (stereo not shown) the inhibition was > 50% (Protein arginine N-methyltransferase 7 (PRMT7, Homo sapiens, UniProt Q9NVM4); enzyme activity, inhibitor; 20 µM).
`Cc1cccc(Nc2c3c(nc4ccccc24)CCCC3)n1` has an inhibition of -168% (BCHE; enzyme activity, inhibitor; 100 µM).
`OC[C@H]1[C@@H](O)[C@@H](O)CN1Cc1ccncc1` has an inhibition of 2% (Lysosomal alpha-mannosidase (Drosophila melanogaster, UniProt Q9VKV1); 2 mM).
The inhibition of `C[C@@]12CC[C@@H]3c4cc(Cl)c(O)c(Cl)c4CC[C@H]3[C@@H]1CCC2=O` is reported as 69.9% (AKR1C3; enzyme activity, inhibitor, absorbance; 10 µM, pH 9).
For `CC(C)CC(NC(=O)C(NC(=O)NC(C(=O)O)C(C)C)C1CCNC(=N)N1)C(=O)NCCCNC(C(=O)O)C(OC1OC(CN)C(O)C1O)C1OC(n2ccc(=O)[nH]c2=O)C(O)C1O` (stereo not shown), inhibition read “no inhibition” (Phospho-N-acetylmuramoyl-pentapeptide-transferase (mraY, Aquifex aeolicus, UniProt O66465, D193N); enzyme activity, inhibitor, radiochemical transfer; 1 µM, D193N mutant).
For `c1cc(Nc2c3c(nc4ccccc24)CCCC3)c2cccnc2c1`, the inhibition was -23.3% (BCHE; enzyme activity, inhibitor; 100 µM).
`O=C(NC1CCN(c2ncnc3[nH]cnc23)CC1)c1cccc(NS(=O)(=O)c2ccc(C(F)(F)F)cc2)c1` — result for inhibition: “inactive” (DNA (cytosine-5)-methyltransferase 1 (DNMT1, Homo sapiens, UniProt P26358); enzyme activity, inhibitor; concentration not given).
With `C[C@@]12CC[C@H]3[C@@H](CCC4=CC(=O)C=C[C@@]43F)[C@@H]1CCC2=O` the inhibition was 41.7% (AKR1C3; enzyme activity, inhibitor, absorbance; 100 µM, pH 9).
`CC1CCc2nc3ccccc3c(Nc3ccc4ccccc4n3)c2C1` (stereo not shown) gave an inhibition of -135% (BCHE; enzyme activity, inhibitor; 100 µM).
The inhibition of `OC[C@H]1O[C@@H](Oc2ccc(-c3ccccc3)cc2)[C@H](O)[C@@H](O)[C@H]1O` is reported as 30% (Adhesin FmlH, lectin domain (Escherichia coli, UniProt Q1RBS0); binding to desialylated mucin, ELISA competition; UPEC UTI89; 100 µM).
For `C[C@@](O)(C(F)F)[C@H](NC(=O)c1ccc(C#CC#CC2CC2)cc1)C(=O)NO`, the inhibition was ≤ 30% (72 kDa type IV collagenase (MMP2, Homo sapiens, UniProt P08253); enzyme activity, inhibitor; 30 µM).
For `c1ccc(Nc2c3c(nc4ccccc24)CCCC3)cc1`, the inhibition was -59.1% (BCHE; enzyme activity, inhibitor; 50 µM).
`O=C(O)c1ccccc1-c1c2ccc(=O)c([As]3SCCS3)c-2oc2c([As]3SCCS3)c(O)ccc12` — result for inhibition: “inhibited” (Tyrosine-protein phosphatase non-receptor type 11 (PTPN11, Homo sapiens, UniProt Q06124); phosphatase activity; concentration not given, 150 min, full-length, with: DiFMUP).
The inhibition of `C[C@@]12CC[C@@H]3c4ccc(O)c(Cl)c4CC[C@H]3[C@@H]1CCC2=O` is reported as 5.3% (AKR1C3; enzyme activity, inhibitor, absorbance; 10 µM, pH 9).
The inhibition of `CC1N=C(c2ccccc2F)c2cc(Nc3ccccc3C(F)(F)F)ccc2NC1=O` (stereo not shown) is reported as 32% (Alpha-2B adrenergic receptor (ADRA2B, Homo sapiens, UniProt P18089); ligand displacement, radioligand; 10 µM).
For `CC(=O)NC(Cc1ccc(Br)c(Cl)c1)C(=O)N[C@@H](C)C(=O)N1CCC[C@H]1C(=O)N1CCC[C@H]1C(=O)N[C@@H](CCC(=O)O)C(=O)N[C@@H](Cc1c[nH]cn1)C(=O)N[C@@H](CO)C(=O)N[C@H](C(=O)N[C@@H](C)C(N)=O)[C@@H](C)OP(=O)(O)O` (stereo partly shown), the inhibition was 0.85% (Cyclin-dependent kinase 2, with cyclin E1 (CDK2, Homo sapiens, UniProt P24941); enzyme activity, inhibitor; 10 µM).
The inhibition of `O=C(CCCc1ccccc1)N[C@H]1CCOC1=O` is reported as 56% (AbaR (Acinetobacter baumannii); reporter gene, antagonist; 100 µM, with: 2 700 nM).
`COc1ccc(Nc2c3c(nc4ccccc24)CCCC3)nc1` gave an inhibition of 65.7% (BCHE; enzyme activity, inhibitor; 100 µM).
With `COC(=O)C1=CO[C@@H](OC(C)=O)[C@@H]2C(Cn3cc(CCO[Si](c4ccccc4)(c4ccccc4)C(C)(C)C)nn3)=CC[C@H]12` the inhibition was 1.79 ± 0.17% (BCHE; inhibitor; horse serum BuChE; 10000 µM).
The inhibition of `CCCc1cnn2c(NCc3ccc(C)s3)nc(N[C@H](CC)CO)nc12` is reported as ~25% (CDK2; enzyme activity; 2 µM).
The inhibition of `CC(C)C[C@H](N)C(=O)N1CCC[C@H]1C(=O)N[C@@H](Cc1ccc(O)cc1)C(=O)N[C@@H](Cc1ccc(O)cc1)C(=O)O` is reported as 91.3 ± 0.03% (Angiotensin-converting enzyme (ACE, Oryctolagus cuniculus, UniProt P12822); inhibitor; rabbit; concentration not given, before incubation with ACE).
For `COC(=O)C1=CO[C@@H](OC(C)=O)[C@@H]2C(Cn3cc(-c4ccccc4)nn3)=CC[C@H]12`, the inhibition was 47.75 ± 0.29% (BCHE; inhibitor; horse serum BuChE; 10000 µM).
For `Cc1ccnc(Nc2c3c(nc4ccccc24)CCCC3)c1`, the inhibition was -73.4% (BCHE; enzyme activity, inhibitor; 100 µM).
`O=C(NCCc1cccc(F)c1)[C@@H](c1cncnc1)N(C(=O)[C@H](F)Cl)c1ccc(S(F)(F)(F)(F)F)cc1` — result for inhibition: “no inhibition” (CTSL; inhibitor; 20 µM).
`Cc1cccc(Nc2c3c(nc4ccccc24)CCC(C)C3)n1` (stereo not shown) gave an inhibition of -175% (BCHE; enzyme activity, inhibitor; 50 µM).
For `CC[C@H](C)[C@H](NC(=O)[C@H](Cc1ccc(O)cc1)NC(=O)[C@@H](NC(=O)[C@H](CCCNC(=N)N)NC(=O)[C@@H](N)CC(=O)O)C(C)C)C(=O)N[C@@H](Cc1c[nH]cn1)C(=O)N1CCC[C@H]1C(=O)N[C@@H](Cc1ccccc1)C(=O)O`, the inhibition was 20% (Angiotensin-converting enzyme (ACE, Homo sapiens, UniProt P12821); angiotensin I hydrolysis; human serum; 2.5 µM, with: angiotensin I 2.5 µM).
For `COC(=O)C1=CO[C@@H](OC(C)=O)[C@@H]2C(Cn3cc(-c4ccc(OC)cc4)nn3)=CC[C@H]12`, the inhibition was 34.97 ± 0.26% (BCHE; inhibitor; horse serum BuChE; 10000 µM).

A few entries again:
`Cc1cccc(Nc2c3c(nc4ccccc24)CCCC3)n1` has an inhibition of -168% (BCHE; enzyme activity, inhibitor; 100 µM).
`OC[C@H]1[C@@H](O)[C@@H](O)CN1Cc1ccncc1` has an inhibition of 2% (Lysosomal alpha-mannosidase (Drosophila melanogaster, UniProt Q9VKV1); 2 mM).
The inhibition of `C[C@@]12CC[C@@H]3c4cc(Cl)c(O)c(Cl)c4CC[C@H]3[C@@H]1CCC2=O` is reported as 69.9% (AKR1C3; enzyme activity, inhibitor, absorbance; 10 µM, pH 9).
